# Measurements of several laboratories.
# Lines come from different studies, so protocols differ.
# Cell line: K562
Structure (SMILES),test,conditions,IC50
COc1ccc(-c2coc3c(CC=C(C)C)c(O)c(CC=C(C)C)c(O)c3c2=O)cc1O,"cell growth or viability, MTT",,29.4 µM
O=C(/C=C/c1ccc(O)c(O)c1)c1ccc(O)cc1O,cell viability,,13 µM
Cc1ccc(C(=O)C2Sc3nnc(-n4nc(C)cc4C)n3NC2c2ccc(Cl)cc2)cc1 (racemic),"cell growth or viability, imaging",72 h,> 100 µM
C(=C/c1ccccc1)/c1ccccc1,"cell growth or viability, ATP luminescence",24 h,53 µM
Cc1nc(Nc2ncc(C(=O)Nc3c(C)cccc3Cl)s2)cc(N2CCN(CCOC(=O)[C@@H](N)CS)CC2)n1,"cell growth or viability, MTT",72 h,0.000658 µM
CC(C)(C(=O)O)C1(O)CCCCC1,cell growth or viability,72 h,> 200 µM
CCCCn1cc(C(=O)O)c(=O)c2cc(F)c(Nc3cc(OC)c(OC)c(OC)c3)c(N)c21,"cell growth or viability, SRB",72 h,8.67 µg/mL
COc1cc2c(cc1O)[C@]1(O)C(=O)c3c(O)cc4c(c3O[C@@H]1CO2)C=CC(C)(C)O4,"cell growth or viability, MTT",,25.8 µM
O=C(/C=C/c1ccc(O)cc1)c1ccccc1,cell viability,,31 µM
COc1ccc(C[C@H]2COC(=O)[C@@H]2Cc2ccc(OCCCCCCCC(=O)NO)c(OC)c2)cc1OC,"cell growth or viability, CCK-8",48 h,1.82 µM
Cc1nc(Nc2ncc(C(=O)Nc3c(C)cccc3Cl)s2)cc(N2CCN(C(=O)CCOCCNC(=O)CN)CC2)n1,"cell growth or viability, CCK-8",,0.021 µM
O=C(/C=C/c1ccccc1)c1ccc(O)cc1,"NF-κB activity, inhibitor, luciferase",TNF-stimulated,28 µM
COc1cc(C2Oc3ccc(C=C4Oc5cc(O)ccc5C4=O)cc3OC2CO)cc(OC)c1O (stereo not drawn),"cell growth or viability, MTT",72 h,19 µM
O=C(CCc1ccc(O)cc1)c1c(O)cc(O)cc1OC1OC(CO)C(O)C(O)C1O (stereo not drawn),"NF-κB activity, inhibitor, luciferase",TNF-stimulated,> 200 µM
COc1ccc(/N=N/C(=S)N2CCCCC2)cc1,"cell growth or viability, resazurin",48 h,25.5 µM
CO[C@@H]1C(=O)c2ccc(O)cc2O[C@@H]1c1ccc(O)c(O)c1 (relative stereo),"cell growth or viability, MTT",72 h,47.7 µM
CCCCn1cc(C(=O)O)c(=O)c2cc(F)c(Nc3ccc(OC)cc3)c([N+](=O)[O-])c21,"cell growth or viability, SRB",72 h,> 200 µg/mL
O=C(/C=C/c1ccc(O)c(O)c1)c1c(O)cc(O)cc1O,"NF-κB activity, inhibitor, luciferase",TNF-stimulated,> 200 µM
CC(C)=CCc1cc(-c2coc3cc(O)c(CC=C(C)C)c(O)c3c2=O)ccc1O,"cell growth or viability, MTT",,53.7 µM
COc1ccc(C(=O)/C=C/c2ccccc2)cc1,cell viability,,38 µM
Cc1nc(Nc2ncc(C(=O)Nc3c(C)cccc3Cl)s2)cc(N2CCN(CCOC(=O)[C@@H](N)CCCNC(=N)N)CC2)n1,"cell growth or viability, MTT",72 h,< 5.12e-05 µM
COc1ccc(CN2C[C@H](O)[C@H](O)[C@@H]2CO)cc1,"cell growth or viability, MTS",72 h,192 µM
CCCCCCCCCCCCCCCC(=O)OCCN1CCN(c2cc(Nc3ncc(C(=O)Nc4c(C)cccc4Cl)s3)nc(C)n2)CC1,"cell growth or viability, MTT",72 h,< 5.12e-05 µM
COc1ccc(CN2C(=O)C(=O)c3cc(NC(C)=O)ccc32)cc1,"cell growth or viability, MTT",48 h,0.29 µM
COc1ccc(/C=C/C(=O)c2c(O)cc(OC)cc2OC)cc1,"NF-κB activity, inhibitor, luciferase",TNF-stimulated,> 200 µM
CC(C)=CCCC(C)C1CCC2(C)C3=C(CCC12C)C1(C)CCC(=O)C(C)(C)C1CC3 (stereo not drawn),"cell growth or viability, SRB",,13.6 µM
COc1ccc(C[C@H]2COC(=O)[C@@H]2Cc2ccc(OCCCCCCCCC(=O)NO)c(OC)c2)cc1OC,"cell growth or viability, CCK-8",48 h,3.03 µM
OC[C@H]1[C@@H](O)[C@@H](O)CN1CCc1ccccc1,"cell growth or viability, MTS",72 h,189 µM
O=C(CCc1ccc(O)cc1)c1c(O)cc(O)cc1O,cell viability,,59 µM
COc1ccc(/N=N/C(=S)N2CCN(C)CC2)cc1,"cell growth or viability, resazurin",48 h,11 µM

# Repeated from above:
Structure (SMILES),test,conditions,IC50
CO[C@@H]1C(=O)c2ccc(O)cc2O[C@@H]1c1ccc(O)c(O)c1 (relative stereo),"cell growth or viability, MTT",72 h,47.7 µM
COc1cc(C2Oc3ccc(C=C4Oc5cc(O)ccc5C4=O)cc3OC2CO)cc(OC)c1O (stereo not drawn),"cell growth or viability, MTT",72 h,19 µM
OC[C@H]1[C@@H](O)[C@@H](O)CN1CCc1ccccc1,"cell growth or viability, MTS",72 h,189 µM
CC(C)=CCCC(C)C1CCC2(C)C3=C(CCC12C)C1(C)CCC(=O)C(C)(C)C1CC3 (stereo not drawn),"cell growth or viability, SRB",,13.6 µM
